Assay results gathered from unrelated publications.
Compare with care: the assays were run in different laboratories. ± gives the spread as reported.

O=c1c(O)c(-c2ccc(O)cc2)oc2cc(OS(=O)(=O)O)cc(O)c12
Cmax (FVB mice, male, Mrp1^−/−, plasma; oral, 10 mg/kg of kaempferol): 0.153 ± 0.062 µM

COc1cc(CCC(C)=O)ccc1O
Cmax (male C57BL/6J mice low-fat diet, plasma; oral, 200 mg/kg, diet 8 weeks): 54.7 ± 1.54 µM

Cc1nc2cccc(OCC(C)(C)C(=O)NC(C)C)c2c(N)c1C(=O)O
Cmax (female Sprague-Dawley rat, plasma; dietary, 60 mg/kg/day, day 7): 38.5 ng/mL

COc1ccc(CCC(C)=O)cc1
Cmax (obese male C57BL/6J mice, plasma; oral, 200 mg/kg, high-fat diet 8 weeks): 0.064 ± 0.015 µM

CC[C@H](C)[C@@H]1NC(=O)[C@H](Cc2ccc(O)cc2)NC(=O)[C@@H](N)CSSC[C@@H](C(=O)N2CCC[C@H]2C(=O)N[C@@H](CC(C)C)C(=O)NCC(N)=O)NC(=O)[C@H](CC(N)=O)NC(=O)[C@H](CCC(N)=O)NC1=O
Cmax (ELISA; C57BL/6J male mice, wild type, plasma; intraperitoneal, 12 µg total): 291 ± 42 pg/sample

COc1cccc(-c2n[nH]c(SCc3ccccn3)n2)c1OC
Cmax (Sprague-Dawley rat, both sexes, plasma; oral, diet, 10 mg/kg/day, day 90): 846 ng/mL

COc1ccc(/N=C(\N)CC(O)c2cc3c(F)cc(F)cc3c3cc(C(F)(F)F)ccc23)cc1.Cl (stereo not shown)
Cmax (mouse, dried blood spot; oral, 30 mg/kg single dose): 78.1 ng/mL

OCCc1ccc(O)cc1
Cmax (male C57BL/6J mice low-fat diet, plasma; oral, 200 mg/kg, after enzymatic deconjugation): 41.8 ± 3.73 µM

CCCC[C@H](NC(C)=O)C(=O)N[C@H]1CCC(=O)NC[C@@H](C(=O)N[C@@H](Cc2c[nH]c3ccccc23)C(N)=O)NC(=O)[C@H](CCCNC(=N)N)NC(=O)[C@@H](Cc2ccccc2)NC(=O)[C@H](Cc2c[nH]cn2)NC1=O
Cmax (beagle dog, male, plasma; subcutaneous, 1.5 mg/kg daily, day 1): 116 ng/mL

OCCc1ccc(O)c(O)c1
Cmax (male C57BL/6J mice low-fat diet, plasma; oral, 200 mg/kg, diet 8 weeks): 0.074 ± 0.017 µM

CC(=O)N[C@@H](Cc1ccccc1)C(=O)N[C@H]1CCCNC(=O)[C@H](CCCNC(=N)N)NC(=O)[C@H](Cc2c[nH]c3ccccc23)NC(=O)[C@@H](CC2CCCCC2)NC(=O)[C@@H]2CCCN2C1=O
Cmax (C57BL/6J mouse, plasma; intraperitoneal, 1 mg/kg, single dose): 4920 ng/mL

COc1cccc2c1C(=O)c1c(O)c3c(c(O)c1C2=O)C[C@@](O)(C(=O)CO)C[C@@H]3O[C@H]1C[C@H](N)[C@H](O)[C@H](C)O1
Cmax (mouse, E0771 tumour-bearing, liver; intravenous, 92 µmol/kg): 189 µM

Cc1cc(Nc2cc3ncccc3c(N[C@@H]3C[C@H]4CC[C@@H](C3)N4CCC#N)n2)n[nH]1
Cmax (pregnant rat, maternal plasma; oral, 30 mg/kg/day, gestation day 6): 1.85 ng/mL
